Measurements collected from several papers.
Parts stem from different laboratories: compare values within a part only. Substitutions count along the parent as printed.

Study 1
Target: Ras GTPase-activating protein-binding protein 1, C-terminal RGG region (G3BP1, Homo sapiens, UniProt Q13283)
UniProt Q13283, sequence (whole entry, looked up): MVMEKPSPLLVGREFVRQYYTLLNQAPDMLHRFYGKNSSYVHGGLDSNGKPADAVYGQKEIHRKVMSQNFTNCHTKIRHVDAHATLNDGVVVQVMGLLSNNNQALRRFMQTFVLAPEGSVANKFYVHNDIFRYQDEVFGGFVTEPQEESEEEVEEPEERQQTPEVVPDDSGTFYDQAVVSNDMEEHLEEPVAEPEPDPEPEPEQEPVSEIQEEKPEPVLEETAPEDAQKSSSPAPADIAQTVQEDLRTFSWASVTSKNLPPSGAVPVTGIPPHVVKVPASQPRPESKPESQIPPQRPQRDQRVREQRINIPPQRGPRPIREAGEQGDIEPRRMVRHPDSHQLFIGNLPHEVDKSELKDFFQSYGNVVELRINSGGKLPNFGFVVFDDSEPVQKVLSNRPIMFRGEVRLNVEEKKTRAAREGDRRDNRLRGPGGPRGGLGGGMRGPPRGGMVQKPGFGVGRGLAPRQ
Technique: RNA Bind-n-Seq
Form: RNA
Matrix: in vitro
Concentration: 1 µM
Notes: whole 134-nt RNA, ends assumed
With: 150 mM KCl
Relative to: input library
Direction: higher = stronger binding
Measurement: log2 enrichment
Shared flanks, not repeated: GGGAGUUCUACAGUCCGACGAUC … UGGAAUUCUCGGGUGUCAAGG
UUAAUAGAUUGAACUUCAAAAAAAAAUUCUUUCUUAAUUUCUGGAUUAAAAAGUAUGCCUGUGUCUUCUAGACCUUUACCAGAAGAUGAU: -1.82
UGGCCCUGGUGGCAUGCGGGGAGGAAGAGGUGGCCUCAUGGAUCGUGGUGGUCCGGGUGGAAUGUUCAGAGGUGGCCGUGGUGGAGACAG: 1.88
CCUCAAGUCCUGUGCUACACAUCGUAUGUACCGAAUCGGGGCGGGCGGCGGGGAAAGUAUUAUGUUACGCCGUUCGGAUCUGCACUUCCA: 0.0869
UCCUCAAGUCCUGUGCUACACAUCGUAUGUACCGAAUCGGAGGGAGGGAGGGAAAGUAUUAUGUUACGCCGUUCGGAUCUGCACUUCCAG: 1.79
UGGGAGGUGGAUUUUGUUUAUUUUUCUAGCUCAUUUCCAGGGGUGGGAAUUUUUUUUUAAUAUGUGUCAUGAAUAAAGUUGUUUUUGAAA: 3.85
GCAGGAAGUAAAAACAAAUGGAAAGGCUUCGGAUAGUGGCAGGGGUGGGGGUUGCUAAGGAAAGGGUGGGAUGGGAGUGGGUAAAGAGUU: 1.59
UCAAGUCCUGUGCUACACAUCGUAUGUACCGAAUCGGGUUUGGUUUGGGGUUUGGAAAGUAUUAUGUUACGCCGUUCGGAUCUGCACUUC: -1.18
UGGCCCUGGUGGCAUGCGGGGAGGAAGAGGUGGCCUCAUGGAUCGAGGUGGUCCCGGUGGAAUGUUCAGAGGUGGCCGUGGUGGAGACAG: 2.51

Study 2
Target: Sal-like protein 4, full length isoform B (SALL4, Homo sapiens, UniProt Q9UJQ4-2, residues 1-616)
Technique: universal PBM
Form: double-stranded DNA, one strand shown
Matrix: in vitro
Concentration: not given
Notes: 8-mer, flanks averaged, mean of replicates
Direction: higher = stronger binding
Measurement: E-score
CACACATG: -0.049
AGCCTTCC: -0.102
GCCGCAAC: -0.117
AAGCAAAG: 0.141
AAAAAGTT: 0.228
ATGATACC: 0.192
AGCGCCGC: -0.316
ATTATTGC: 0.357

Mixed results
P1: PafA, mature enzyme, eGFP fusion (Elizabethkingia meningoseptica, UniProt Q9KJX5); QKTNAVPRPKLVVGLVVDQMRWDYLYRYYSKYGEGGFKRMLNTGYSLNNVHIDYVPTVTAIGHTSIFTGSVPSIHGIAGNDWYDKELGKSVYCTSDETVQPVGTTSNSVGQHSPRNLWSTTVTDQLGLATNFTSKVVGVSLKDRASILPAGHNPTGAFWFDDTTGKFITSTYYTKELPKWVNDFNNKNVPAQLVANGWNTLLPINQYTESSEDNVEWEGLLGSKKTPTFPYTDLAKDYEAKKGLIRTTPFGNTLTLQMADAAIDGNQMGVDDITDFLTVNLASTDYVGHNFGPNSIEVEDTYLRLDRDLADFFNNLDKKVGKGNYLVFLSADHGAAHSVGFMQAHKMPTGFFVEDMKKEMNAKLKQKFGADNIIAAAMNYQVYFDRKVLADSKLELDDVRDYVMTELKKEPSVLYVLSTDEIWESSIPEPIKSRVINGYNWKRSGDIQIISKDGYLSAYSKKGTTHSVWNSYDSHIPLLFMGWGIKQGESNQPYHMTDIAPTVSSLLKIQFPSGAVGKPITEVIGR
SNRPD1 (Homo sapiens, UniProt P62314)  interaction screen (SNRPD2 (Homo sapiens, UniProt P62316); cross-linking MS; hits only): cross-linked
P1 T278V  phosphate dissociation constant (inorganic phosphate, free oxyanion; microfluidic competitive inhibition; in vitro, cell-free expressed; not given, derived from inhibition constants, unchanged parent 615000 nM; lower = stronger binding): 576 µM
FLOT1 (Homo sapiens, UniProt O75955)  cross-linked residues (ARHGEF7 (Homo sapiens, UniProt Q14155); cross-linking MS; cell fractions; with: DSSO): K198 to K535
SUCLG1 (Homo sapiens, UniProt P53597)  interaction screen (SUCLG2 (Homo sapiens, UniProt Q96I99); cross-linking MS; hits only): cross-linked
TTC7B (Homo sapiens, UniProt Q86TV6)  interaction screen (HYCC1 (Homo sapiens, UniProt Q9BYI3); cross-linking MS; hits only): cross-linked

A few entries again (mixed results):
P1 T278V  phosphate dissociation constant (inorganic phosphate, free oxyanion; microfluidic competitive inhibition; in vitro, cell-free expressed; not given, derived from inhibition constants, unchanged parent 615000 nM; lower = stronger binding): 576 µM
SUCLG1 (Homo sapiens, UniProt P53597)  interaction screen (SUCLG2 (Homo sapiens, UniProt Q96I99); cross-linking MS; hits only): cross-linked
SNRPD1 (Homo sapiens, UniProt P62314)  interaction screen (SNRPD2 (Homo sapiens, UniProt P62316); cross-linking MS; hits only): cross-linked
